Measured values of several laboratories.
Protocols differ between the studies behind these lines. Values joined by “and” are separate records of one study, mostly repeats; a detail may differ. Numbers after ± are the reported error.
UniProt Q4U2R8, sequence (whole entry, looked up): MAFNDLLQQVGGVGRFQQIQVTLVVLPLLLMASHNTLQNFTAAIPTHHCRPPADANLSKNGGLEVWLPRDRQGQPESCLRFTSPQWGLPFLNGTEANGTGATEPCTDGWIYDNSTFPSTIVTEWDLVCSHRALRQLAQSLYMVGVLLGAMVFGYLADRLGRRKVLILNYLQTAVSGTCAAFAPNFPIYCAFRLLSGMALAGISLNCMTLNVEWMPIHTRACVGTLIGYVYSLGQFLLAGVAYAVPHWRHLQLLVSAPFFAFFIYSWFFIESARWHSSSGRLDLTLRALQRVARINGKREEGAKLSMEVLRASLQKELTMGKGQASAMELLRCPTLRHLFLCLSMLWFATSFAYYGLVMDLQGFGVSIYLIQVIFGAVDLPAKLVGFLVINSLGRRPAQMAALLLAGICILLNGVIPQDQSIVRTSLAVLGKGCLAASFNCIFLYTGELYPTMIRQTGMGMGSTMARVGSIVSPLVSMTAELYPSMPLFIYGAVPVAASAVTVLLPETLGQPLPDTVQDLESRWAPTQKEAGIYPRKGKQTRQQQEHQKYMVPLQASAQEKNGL

| SMILES | target or system | assay | system | setting | quantity | result |
| --- | --- | --- | --- | --- | --- | --- |
| O=C1NC2(CC2)COc2ncc(F)cc2[C@H]2COCCN2c2ccn3ncc1c3n2 | – | – | Sprague-Dawley rat, female, serum | oral, 2.5 mg/kg/day, 4 weeks daily, end of treatment | gamma-glutamyltransferase activity | 0.1 U/L |
| Cc1nc2cccc(OCC(C)(C)C(=O)NC(C)C)c2c(N)c1C(=O)[O-].[Na+] | Salmonella typhimurium | – | TA98 | 0.32 mg per plate, without S9, preincubation | revertant colonies per plate | 26 ± 2 |
| CCn1ccc(-c2cc([C@@H](C)NC(=O)c3cc(OC[C@@H]4CCCN4C)ccc3C)c3ccccc3n2)n1 | Vero E6 | – | – | 7.812 µM | viability | 97.6% and 106% and 98.8% |
| O=C1CC[C@@]2(O)[C@H]3Cc4ccc(O)c5c4[C@@]2(CCN3CCc2ccccc2)[C@H]1O5 | – | – | octanol/buffer | 1 h, pH 7.4 | logD | 0.78 |
| Cc1ccc(OCCN(C)C)cc1C(=O)N[C@H](C)c1cc(-c2cnn(CC(C)(C)O)c2)nc2ccccc12 | Vero E6 | – | – | 7.812 µM | viability | 101% and 111% |
| CN(C)CCCNC(=O)[C@@H]1NC(=O)[C@@H]2Cc3ccc(cc3)Oc3cc4cc(c3O)-c3ccc5c(c[nH]c5c3)C[C@@H](NC(=O)C(NC(=O)CCCCCN)c3ccc(O)cc3)C(=O)N[C@H](c3ccc(O)cc3)C(=O)N[C@H]4C(=O)N[C@@H](C(=O)N2C)c2ccc(cc2)Oc2cc1ccc2O (stereo partly drawn) | human red blood cells | – | – | 32 µg/mL, 1 h, 37 °C, 1% DMSO | hemolysis | 0.47% |
| CCN(CC)CCOc1ccc(-c2nnn(Cc3ccc(OC)cc3)c2N)cc1 | CYP3A | – | – | concentration not given | inhibition | 76.2% |
| CC[C@H](C)[C@H](NC(=O)[C@H](CCCCN)NC(=O)CNC(=O)[C@H](CC(C)C)NC(=O)[C@H](Cc1ccccc1)NC(=O)[C@H](CCCCN)NC(=O)[C@H](CO)NC(=O)[C@H](Cc1ccccc1)NC(=O)[C@H](Cc1c[nH]c2ccccc12)NC(=O)[C@H](CCC(N)=O)NC(=O)[C@@H](NC(=O)[C@H](Cc1ccccc1)NC(=O)CCCCCNC(=O)CN1CCN(CC(=O)O)CCN(CC(=O)O)CCN(CC(=O)O)CC1)C(C)C)C(=O)N[C@@H](CCC(=O)O)C(=O)N1CCC[C@H]1C(=O)N[C@@H](CC(=O)O)C(=O)N[C@H](C(=O)N[C@@H](CO)C(=O)N[C@@H](CCC(N)=O)C(=O)N[C@H](C(=O)N[C@@H](CCC(N)=O)C(=O)N[C@@H](CC(=O)O)C(=O)N1CCC[C@H]1C(=O)N[C@@H](CC(N)=O)C(=O)N[C@@H](CC(=O)O)C(=O)N[C@@H](CCC(N)=O)C(=O)N[C@@H](Cc1ccc(O)cc1)C(=O)N[C@@H](CCC(=O)O)C(=O)N1CCC[C@H]1C(=O)N[C@@H](Cc1ccccc1)C(=O)O)C(C)C)C(C)C [copper-64 labelled] | – | dynamic PET | mouse, CT26 tumour, untreated, tumour | intravenous, 100 µCi/mouse, 2700 s | SUVmean | 0.98 SUV |
| Cc1ccc(OCCN(C)C)cc1C(=O)N[C@H](C)c1cc(-c2scnc2C)nc2ccccc12 | Vero E6 | – | – | 3.906 µM | viability | 109% and 108% |
| CN(C)c1ccc(-c2nc3ccccc3n2CCCOc2ccccc2)cc1 | HEp-2 | cell growth or viability, ATP luminescence | – | 72 h | IC50 | > 7.22 µM |
| CCn1ccc(-c2cc([C@@H](C)NC(=O)c3cc(N4CCN(C)CC4)ccc3C)c3ccccc3n2)n1 | Vero E6 | – | – | 31.25 µM | viability | 19.5% and 38.2% and 25.6% |
| CC(=O)NCCCC[C@@H]1NC(=O)[C@H](Cc2c[nH]c3c(C)cccc23)NC(=O)[C@H]([C@@H](C)O)NC(=O)[C@H](CC(N)=O)NC(=O)[C@@H](NC(C)=O)C(C)(C)SSC(C)(C)[C@@H](C(=O)N[C@@H](Cc2ccc(OCCN)cc2)C(=O)N[C@@H](Cc2ccc3ccccc3c2)C(=O)NC2(C(=O)N[C@@H](CCC(=O)O)C(=O)N[C@@H](CC(N)=O)C(=O)N[C@@H](Cc3cccnc3)C(=O)N(C)CC(N)=O)CCOCC2)NC1=O | SLC22A6 (Homo sapiens, UniProt Q4U2R8) | substrate | HEK293 overexpressing transporter | 5 µM, 30 min, with: 300 µM probenecid | uptake rate | 0.186 ± 0.013 pmol/mg/min |

Repeated from above:
| SMILES | target or system | assay | system | setting | quantity | result |
| --- | --- | --- | --- | --- | --- | --- |
| Cc1nc2cccc(OCC(C)(C)C(=O)NC(C)C)c2c(N)c1C(=O)[O-].[Na+] | Salmonella typhimurium | – | TA98 | 0.32 mg per plate, without S9, preincubation | revertant colonies per plate | 26 ± 2 |
